Measured values pooled from the literature.
Every numbered part comes from another study and shows a few of its results, in no order. Positions count from the first letter of the parent shown.

Block 1
Target: Sal-like protein 4, full length isoform A (SALL4, Homo sapiens, UniProt Q9UJQ4, residues 1-1053)
Chain of UniProt Q9UJQ4 (whole entry, looked up): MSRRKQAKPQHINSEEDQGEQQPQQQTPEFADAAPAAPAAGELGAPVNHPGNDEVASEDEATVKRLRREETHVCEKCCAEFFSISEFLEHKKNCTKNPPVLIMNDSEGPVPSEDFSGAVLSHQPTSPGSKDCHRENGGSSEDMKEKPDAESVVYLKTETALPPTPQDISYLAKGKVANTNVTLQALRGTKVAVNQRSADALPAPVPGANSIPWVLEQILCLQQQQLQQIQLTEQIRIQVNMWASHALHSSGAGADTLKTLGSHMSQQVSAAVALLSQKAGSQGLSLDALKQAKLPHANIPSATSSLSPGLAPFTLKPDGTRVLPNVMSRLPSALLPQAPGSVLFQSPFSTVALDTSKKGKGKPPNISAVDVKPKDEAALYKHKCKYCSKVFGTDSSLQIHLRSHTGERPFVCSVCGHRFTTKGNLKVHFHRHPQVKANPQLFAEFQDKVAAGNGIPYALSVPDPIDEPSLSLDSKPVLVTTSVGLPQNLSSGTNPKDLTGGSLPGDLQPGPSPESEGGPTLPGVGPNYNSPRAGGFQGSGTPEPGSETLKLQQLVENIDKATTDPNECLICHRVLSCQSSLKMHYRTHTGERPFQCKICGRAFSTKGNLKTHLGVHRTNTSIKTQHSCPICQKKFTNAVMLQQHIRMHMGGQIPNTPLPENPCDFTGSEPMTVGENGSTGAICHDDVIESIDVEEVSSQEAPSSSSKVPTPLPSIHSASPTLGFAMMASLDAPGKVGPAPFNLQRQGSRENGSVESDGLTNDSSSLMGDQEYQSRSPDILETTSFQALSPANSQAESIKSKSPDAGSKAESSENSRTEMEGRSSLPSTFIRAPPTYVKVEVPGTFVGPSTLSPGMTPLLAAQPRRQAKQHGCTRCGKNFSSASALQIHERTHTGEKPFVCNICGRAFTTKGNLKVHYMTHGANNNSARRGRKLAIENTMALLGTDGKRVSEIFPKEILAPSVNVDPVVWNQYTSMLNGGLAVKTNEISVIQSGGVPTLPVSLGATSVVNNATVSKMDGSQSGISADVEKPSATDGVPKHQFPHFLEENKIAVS
Technique: universal PBM
Molecule type: double-stranded DNA, one strand shown
Sample: in vitro
Concentration: 600 nM
Setting: 8-mer, flanks averaged, mean of replicates
Reading: higher = stronger binding
Sequence	E-score
GTACAATA	0.325
CATGCGGG	-0.309
CTCCAGAA	-0.166
TAGCAATA	0.334
GGCGATCA	-0.136
ATCCCGAC	-0.117
GGCAACAA	0.029
ACACCAGA	-0.00877

Block 2
Target: Phosphate system positive regulatory protein PHO4, full length, GST-tagged (PHO4, Saccharomyces cerevisiae, UniProt P07270, residues 1-312)
Technique: competition protein-binding microarray
Molecule type: double-stranded DNA, one strand shown
Sample: in vitro
Concentration: 2 µM
Setting: whole 60-bp probe, lowest competitor level
Together with: Cbf1 competitor, 0.05 µM
Reading: higher = stronger binding
All sequences stand within: … GTCTTGATTCGCTTGACGCTGCTG
Construct (chain): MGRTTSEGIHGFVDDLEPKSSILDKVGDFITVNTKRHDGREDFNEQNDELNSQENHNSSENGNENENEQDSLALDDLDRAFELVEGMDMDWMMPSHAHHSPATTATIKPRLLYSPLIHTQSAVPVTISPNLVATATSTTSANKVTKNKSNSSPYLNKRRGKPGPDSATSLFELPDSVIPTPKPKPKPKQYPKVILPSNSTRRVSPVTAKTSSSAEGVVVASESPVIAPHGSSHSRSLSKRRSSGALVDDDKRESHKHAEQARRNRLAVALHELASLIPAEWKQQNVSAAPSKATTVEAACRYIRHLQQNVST
Sequence	fluorescence intensity
TTTCTCGAATTTTTGCACGTGAAAACGGTGAACCTC	13400 a.u.
GCCGTTCAGCGACTCCATGTGCTCGGGAATCCGCTG	9990 a.u.
TCATCCCATCCTCGGCACGCATTACCAGCACTCAAA	8220 a.u.
AAGTGTCCTGCATTCCATGTGAAAGTTAAATAATCT	5190 a.u.
TTTTGCGATAAATTTAACGTGCTTTTGAACAGGATT	7030 a.u.
CATGAATGTGGTACCCACGTTCTGCGTTAGGACTGT	14500 a.u.
AAAATATTCATTTTGCACGTTTCAATGCTTGACAGA	13200 a.u.
CTTTCCCGATCTTGTCACGCGACTTTAGCACATTTG	7770 a.u.

Single results of other studies
P1: PafA, mature enzyme, eGFP fusion (Elizabethkingia meningoseptica, UniProt Q9KJX5); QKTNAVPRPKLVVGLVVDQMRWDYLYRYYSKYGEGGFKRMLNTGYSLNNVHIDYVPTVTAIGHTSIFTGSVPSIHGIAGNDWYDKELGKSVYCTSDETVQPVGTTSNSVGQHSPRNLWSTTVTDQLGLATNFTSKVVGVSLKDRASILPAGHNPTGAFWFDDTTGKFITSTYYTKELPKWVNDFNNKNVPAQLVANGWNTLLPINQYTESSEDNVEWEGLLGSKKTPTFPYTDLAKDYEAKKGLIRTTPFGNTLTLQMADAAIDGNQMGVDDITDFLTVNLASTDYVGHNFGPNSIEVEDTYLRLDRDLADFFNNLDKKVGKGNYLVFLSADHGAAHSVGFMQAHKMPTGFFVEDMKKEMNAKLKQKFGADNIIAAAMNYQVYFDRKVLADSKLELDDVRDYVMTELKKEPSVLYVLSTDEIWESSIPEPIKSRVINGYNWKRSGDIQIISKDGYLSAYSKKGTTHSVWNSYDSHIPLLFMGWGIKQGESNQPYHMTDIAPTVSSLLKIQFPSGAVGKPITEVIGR
Substance	target or system	test	test system	conditions	scale	endpoint	result
INPPL1 (Homo sapiens, UniProt O15357)	ZNF148 (Homo sapiens, UniProt Q9UQR1)	cross-linking MS	cell fractions	together with: DSSO	–	cross-linked residues	S397 to S350
P1 S471V	inorganic phosphate, free oxyanion	microfluidic competitive inhibition	in vitro, cell-free expressed	not given, derived from inhibition constants, unchanged parent 615000 nM	lower = stronger binding	phosphate dissociation constant	504 µM
VN1R2 (Homo sapiens, UniProt Q8NFZ6)	H4C7 (Homo sapiens, UniProt Q99525)	cross-linking MS	cell fractions	together with: DMTMM	–	cross-linked residues	D125 to K9
TPR (Homo sapiens, UniProt P12270)	NUP153 (Homo sapiens, UniProt P49790)	cross-linking MS	cell fractions	together with: DSSO	–	cross-linked residues	K494 to K353
PTBP1 (Homo sapiens, UniProt P26599)	HNRNPK (Homo sapiens, UniProt P61978)	cross-linking MS	cell fractions	together with: DSSO	–	cross-linked residues	K436 to K405

A few entries again (block 1):
Sequence	E-score
CTCCAGAA	-0.166
TAGCAATA	0.334
GGCGATCA	-0.136
